Published values pooled from the literature.
Lines come from different studies, so protocols differ. Numbers after ± are the reported error.
Replicase polyprotein 1ab main protease: Replicase polyprotein 1ab, main protease (Human coronavirus OC43, UniProt P0C6X6)
Gastric inhibitory polypeptide receptor: Gastric inhibitory polypeptide receptor (Mus musculus, UniProt Q0P543)
ACE2: Angiotensin-converting enzyme 2 (ACE2, Homo sapiens, UniProt Q9BYF1)
cqsS: CAI-1 autoinducer sensor kinase/phosphatase CqsS (cqsS, Vibrio cholerae serotype O1, UniProt Q9KM66)

CSCC[C@@H](C=O)NC(=O)[C@H](CC(C)C)NC(=O)[C@H](CC(C)C)NC(C)=O
ΔTm (Replicase polyprotein 1ab main protease; thermal shift; higher = stronger binding): 3.48 ± 0.02 °C

Cc1cc(S(=O)(=O)N(C)CC(=O)Nc2ccn(C)c(=O)c2)c2[nH]ncc2c1
complex half-life increase (Dihydrolipoyl dehydrogenase (Mycobacterium tuberculosis, UniProt P9WHH9); SPR; together with: NADH; relative to: without NADH): 40 fold

CCn1ncc2ccc(NS(=O)(=O)c3cc([N+](=O)[O-])cc(Cl)c3F)cc21
Tm decrease (kasA (Mycobacterium tuberculosis, UniProt P9WQD9); thermal stability, nanoDSF): ~1 °C

Nc1ncnc2c1ncn2C1OC(CSCCC(N)C(=O)O)C(O)C1O (stereo not shown)
kcat (5'-methylthioadenosine/S-adenosylhomocysteine nucleosidase (Vibrio cholerae serotype O1, UniProt Q9KPI8); substrate): 0.5 s⁻¹

CCCCC(=N)NCc1ccc2[nH]c3c(c2c1)CC1(O)C2Cc4ccc(O)c5c4C1(CCN2CC1CC1)C3O5 (stereo not shown)
selectivity ratio (OPRK1 (Homo sapiens, UniProt P41145); [3H]diprenorphine binding; relative to: Ki µ over Ki κ): ~3

CC1C(=NNC(=O)c2ccncc2)C(C)C(c2ccc(Br)cc2)OC1c1ccc(Br)cc1 (stereo not shown)
inhibition (DNA gyrase subunit A/DNA gyrase subunit B (Mycobacterium tuberculosis, UniProt P9WG45+P9WG47); enzyme activity, inhibitor; 6.25 µg/mL): 50.7%

Cc1cc(O)cc(-c2nc(Nc3cc(C(F)(F)F)cc(C(F)(F)F)c3)ncc2-c2ccnc(Cl)c2)c1
inhibition (SRC (Homo sapiens, UniProt P12931); enzyme activity, inhibitor; 10 µM): 33.6%

CC[C@H](C)[C@H](NC(=O)[C@H](CO)NC(=O)[C@H](Cc1ccc(O)cc1)NC(=O)[C@H](CC(=O)O)NC(=O)[C@H](CO)NC(=O)[C@@H](NC(=O)[C@H](Cc1ccccc1)NC(=O)[C@@H](NC(=O)CNC(=O)[C@H](CCC(=O)O)NC(=O)[C@H](C)NC(=O)[C@@H](N)Cc1ccc(O)cc1)[C@@H](C)O)[C@@H](C)CC)C(=O)N[C@@H](C)C(=O)N[C@@H](CCSC)C(=O)N[C@@H](CC(=O)O)C(=O)N[C@@H](CCCCN)C(=O)N[C@H](C(=O)N[C@@H](CCCNC(=N)N)C(=O)N[C@@H](CCC(N)=O)C(=O)N[C@@H](CCC(N)=O)C(=O)N[C@@H](CC(=O)O)C(=O)N[C@@H](Cc1ccccc1)C(=O)N[C@H](C(=O)N[C@@H](CC(N)=O)C(=O)N[C@@H](Cc1c[nH]c2ccccc12)C(=O)N[C@@H](CC(C)C)C(=O)N[C@@H](CC(C)C)C(=O)N[C@@H](C)C(=O)N[C@@H](CCC(N)=O)C(=O)N[C@@H](CCCCN)C(=O)NCC(=O)N[C@@H](CCCCN)C(=O)N[C@@H](CCCCN)C(=O)N[C@@H](CC(N)=O)C(=O)N[C@@H](CC(=O)O)C(=O)N[C@@H](Cc1c[nH]c2ccccc12)C(=O)N[C@@H](CCCCN)C(=O)N[C@@H](Cc1c[nH]cn1)C(=O)N[C@@H](CC(N)=O)C(=O)N[C@@H](CC(C)C)C(=O)N[C@H](C(=O)N[C@@H](CCC(N)=O)C(=O)O)[C@@H](C)O)C(C)C)[C@@H](C)CC
Emax (Gastric inhibitory polypeptide receptor; COS-7): 144 ± 12%

CC(C)C[C@H](NC(=O)[C@H](CCCNC(=N)N)NC(=O)[C@H](Cc1ccccc1)NC(=O)CN)C(=O)N[C@@H](CC(N)=O)C(=O)N[C@@H](CO)C(=O)N[C@@H](C)C(=O)N[C@@H](CO)C(=O)N[C@@H](CCCNC(=N)N)C(=O)N[C@H](C(=O)N[C@@H](C)C(=O)N[C@@H](Cc1c[nH]cn1)C(=O)NCC(=O)N[C@@H](Cc1ccc(O)cc1)C(N)=O)C(C)C
potency ratio (Allatotropin-related peptide receptor 1 (Aplysia californica, UniProt A0ABM0K100); cAMP, agonist; relative to: compound over D2-ATRP): ~80 fold

CCCCCCc1ccc(Oc2ccccc2Br)c(O)c1
k6 (inhA (Mycobacterium tuberculosis, UniProt P9WGR1); inhibitor, progress curve global fit; 20 °C, EI* to EI isomerisation): 0.11 ± 0.014 min⁻¹

N#CC1=C(N)OC2=C(c3sc(N)c(C#N)c3CC2)C1c1ccccc1Cl (stereo not shown)
inhibition (RNMT (Homo sapiens, UniProt O43148); enzyme activity, inhibitor; 50 µM): 92.6%

CC[C@H](C)[C@H](NC(=O)CNC(=O)[C@@H](NC(=O)[C@@H](N)[C@@H](C)O)[C@@H](C)O)C(=O)NCC(=O)N[C@@H](Cc1ccc(O)cc1)C(=O)N[C@@H](CCC(N)=O)C(=O)N1CCC[C@H]1C(=O)N[C@@H](Cc1ccc(O)cc1)C(=O)N[C@@H](CCCNC(=N)N)C(=O)N[C@H](C(=O)N[C@H](C(N)=O)C(C)C)C(C)C
koff (ACE2; binding; pH 8): 0.15 s⁻¹

Cc1ccccc1N1C(=O)/C(=C/c2ccc(OCc3cccc(C(=O)O)c3)cc2)C(=O)NC1=S
selectivity ratio (PTPN1 (Homo sapiens, UniProt P18031); phosphatase activity, inhibitor; relative to: LYP IC50 over PTPN1 IC50 inverse): 3 fold

CC[C@H](C)[C@H](NC(=O)[C@H](CO)NC(=O)[C@H](Cc1ccc(O)cc1)NC(=O)[C@H](CC(=O)O)NC(=O)[C@H](CO)NC(=O)[C@@H](NC(=O)[C@H](Cc1ccccc1)NC(=O)[C@@H](NC(=O)CNC(=O)[C@@H]1CCCN1C(=O)[C@H](C)NC(=O)[C@@H](N)Cc1ccc(O)cc1)[C@@H](C)O)[C@@H](C)CC)C(=O)N[C@@H](C)C(=O)N[C@@H](CCSC)C(=O)N[C@@H](CC(=O)O)C(=O)N[C@@H](CCCCN)C(=O)N[C@H](C(=O)N[C@@H](CCCNC(=N)N)C(=O)N[C@@H](CCC(N)=O)C(=O)N[C@@H](CCC(N)=O)C(=O)N[C@@H](CC(=O)O)C(=O)N[C@@H](Cc1ccccc1)C(=O)N[C@H](C(=O)N[C@@H](CC(N)=O)C(=O)N[C@@H](Cc1c[nH]c2ccccc12)C(=O)N[C@@H](CC(C)C)C(=O)N[C@@H](CC(C)C)C(=O)N[C@@H](C)C(=O)N[C@@H](CCC(N)=O)C(=O)N[C@@H](CCCNC(=N)N)C(=O)NCC(=O)N[C@@H](CCCCN)C(=O)N[C@@H](CCCCN)C(=O)N[C@@H](CO)C(=O)N[C@@H](CC(=O)O)C(=O)N[C@@H](Cc1c[nH]c2ccccc12)C(=O)N[C@@H](CCCCN)C(=O)N[C@@H](Cc1c[nH]cn1)C(=O)N[C@@H](CC(N)=O)C(=O)N[C@H](C(=O)N[C@H](C(=O)N[C@@H](CCC(N)=O)C(=O)O)[C@@H](C)O)[C@@H](C)CC)C(C)C)[C@@H](C)CC
Emax (Gastric inhibitory polypeptide receptor; COS-7): 59 ± 8%

C/C=C(\N)C(=O)CCCCCCCCCCCC
EC50 (cqsS; bioluminescence, agonist; Vibrio cholerae; relative to: Ea-CAI-1 at 100%): 38%

CC(C)C[C@H](NC(=O)OCc1ccccc1)C(=O)N[C@@H](C[C@@H]1CCNC1=O)C(O)S(=O)(=O)O (stereo partly shown)
k2 (Replicase polyprotein 1ab main protease): 0.31 s⁻¹

C/C=C(\N)C(=O)CCCCCCCC
EC50 (cqsS; bioluminescence, agonist; Vibrio cholerae; relative to: Ea-CAI-1 at 100%): 112%

O=C(Cc1nc2cc(Cl)c(Cl)cc2nc1CC(=O)c1cccnc1)c1cccnc1
inhibition (Adenosylmethionine-8-amino-7-oxononanoate aminotransferase (Mycobacterium tuberculosis, UniProt P9WQ81); 100 µg/mL, together with: enzyme 2 µM): > 60%

CCOC(=O)C1C(OC(c2ccc(Cl)cc2)c2ccc(Cl)cc2)CC2CCC1N2C (single isomer, unassigned)
displacement (ADORA2A (Homo sapiens, UniProt P29274); binding; 10000 nM, together with: [3H]CGS-21680): inactive

O=C1CC(=O)N(c2ccccc2)c2cc(Cl)ccc2N1
selectivity ratio (Gabrg2/Gabra2, with β3 subunit (Rattus norvegicus, UniProt P18508+P23576); GABA current potentiation, positive allosteric modulator, whole-cell patch clamp; HEK293; together with: GABA at EC10; relative to: Emax α2 over α1): 1.77 ± 0.28

C=C(C)C1C2OC(=O)C1C1(O)CC3OC34C(=O)OC2C14C (stereo not shown)
Hill coefficient (GABA-A receptor; GABA-A site (alpha1/beta2 interface) (Homo sapiens, UniProt P14867+P47870, V284A); inhibitor, two-electrode voltage clamp; Xenopus oocytes; together with: GABA at EC50): 1.34 ± 0.06

CC(C)c1nc2cc(O)ccc2c(=O)n1-c1ccc(C#N)cc1
IC50 ratio (TRPV1 (Homo sapiens, UniProt Q8NER1, Y511F); ion current, whole-cell patch clamp; pH 5; relative to: mutant over wild type): 5.8 fold

CC(C)C[C@H](NC(=O)[C@H](CCCCN)NC(=O)CNC(=O)[C@H](Cc1c[nH]cn1)NC(=O)[C@H](CCCNC(=N)N)NC(=O)[C@H](CC(C)C)NC(=O)[C@H](Cc1ccc(O)cc1)NC(=O)[C@H](CCCNC(=N)N)NC(=O)[C@H](Cc1ccc(O)cc1)NC(=O)[C@H](CCCCN)NC(=O)[C@@H](N)Cc1ccc(O)cc1)C(=O)N[C@@H](CCCNC(=N)N)C(N)=O
koff (ACE2; binding; pH 8): 0.12 s⁻¹

CCCCCn1cc(C(=O)c2ccc3ccccc3c2)c2ccccc21
Emax (CNR1 (Homo sapiens, UniProt P21554, I267L/L193I/L359V); Gαi1 engagement, agonist, BRET; relative to: reference agonist at wild-type CB1): 149 ± 2.6%

CC(=O)N[C@H]1[C@@H](O)[C@H](O)[C@@H](CO)O[C@H]1O
kcat (N-acetylmannosamine kinase (nanK, Vibrio cholerae serotype O1, UniProt Q9KR61); substrate, ADP-Glo kinase; together with: ATP 0.1 mM): 54 min^–1
